Published values collected from several papers.
Protocols differ between the studies behind these lines. Values joined by “and” are separate records of one study, mostly repeats; a detail may differ. Numbers after ± are the reported error.
HLA class I histocompatibility antigen, A alpha chain allele A*02:01: HLA class I histocompatibility antigen, A alpha chain, allele A*02:01 (Homo sapiens, UniProt P04439)
Sequence of UniProt P48067 (whole entry, looked up): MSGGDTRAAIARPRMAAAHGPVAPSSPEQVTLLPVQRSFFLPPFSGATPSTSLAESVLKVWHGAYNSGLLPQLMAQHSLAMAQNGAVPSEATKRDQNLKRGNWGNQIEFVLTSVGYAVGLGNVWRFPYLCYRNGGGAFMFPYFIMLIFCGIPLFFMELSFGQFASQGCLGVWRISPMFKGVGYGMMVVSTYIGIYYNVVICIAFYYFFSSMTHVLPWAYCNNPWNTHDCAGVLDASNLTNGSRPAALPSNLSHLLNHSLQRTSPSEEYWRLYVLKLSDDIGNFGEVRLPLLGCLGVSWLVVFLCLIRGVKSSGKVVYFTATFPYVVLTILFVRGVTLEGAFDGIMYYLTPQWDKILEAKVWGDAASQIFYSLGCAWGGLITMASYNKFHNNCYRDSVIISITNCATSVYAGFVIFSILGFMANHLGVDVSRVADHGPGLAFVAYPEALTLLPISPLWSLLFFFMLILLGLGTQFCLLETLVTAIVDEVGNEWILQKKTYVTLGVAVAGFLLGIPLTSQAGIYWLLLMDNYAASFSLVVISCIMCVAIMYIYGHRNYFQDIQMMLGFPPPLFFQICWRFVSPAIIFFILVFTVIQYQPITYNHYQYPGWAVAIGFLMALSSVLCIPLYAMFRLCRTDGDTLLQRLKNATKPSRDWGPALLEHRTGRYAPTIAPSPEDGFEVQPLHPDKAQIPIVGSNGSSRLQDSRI

Substance | target or system | assay | system | conditions | how to read | measurement | result
GSGAGSETVV | human MAGI1-3/6 PDZ construct (MBP fusion) | automated holdup | peptide, crude extract | concentration not given, corrected by standard peak, unit not given | relative to: biotin control resin, higher = stronger binding | binding intensity | 0.151
SLLMWVCQV | Jurkat T cells expressing 1G4 TCR | NFAT-eGFP reporter, fluorescence microscopy | peptide | concentration not given, HLA-A*02:01 NY-ESO system | – | reporter activation | 0.913%
SVWLRKETRV | human SCRIB PDZ3-4 tandem (MBP fusion) | surface plasmon resonance | peptide | concentration not given | higher = stronger binding | normalised SPR binding response | 107 normalised RU
TLIMWIERV | Jurkat T cells expressing 1G4 TCR | NFAT-eGFP reporter, flow cytometry | peptide | concentration not given, HLA-A*02:01 NY-ESO system | – | reporter activation | 0.19%
MQLMPFGCLL | HLA class I histocompatibility antigen, A alpha chain allele A*02:01 | complex stability, off-rate | peptide | 37 °C | – | half-life of peptide-HLA complex | 1.2 h
human serum albumin | – | co-immunoprecipitation | human RBC cytosol | unit not given, with: Band 3 peptide 1-56 bait | relative to: negative control | co-IP enrichment | 1.17
GSGAGKETRV | human MAGI1-3/6 PDZ construct (MBP fusion) | automated holdup | peptide, crude extract | concentration not given, corrected by standard peak, unit not given | relative to: biotin control resin, higher = stronger binding | binding intensity | 0.506
11-deoxycorticosterone | CYP11B2 (human) | substrate binding, stopped-flow global kinetic fitting | purified enzyme | model, 4-state CS, linear, with: 40-fold excess adrenodoxin | – | Kd | 5.2 µM
colistin | Acinetobacter baumannii | broth microdilution | clinical isolate RKI-No_13/16 | – | – | MIC | ≤ 0.5 µg/mL
LVHYTHCGSLGV | Epstein-Barr virus | – | peptide, EBV-infected humanized B-NDG mice | 20 mg/kg, day 28 | – | body weight | 22.1 g and 22.9 g
human immunoglobulin gamma-1 constant | – | co-immunoprecipitation | human RBC cytosol | no crosslinker, unit not given, with: Band 3 peptide 1-56 bait | relative to: negative control | co-IP enrichment | 0
FNA / CGLSGLGVA-NH2 ([18F]FNA-labelled, C-amide) | – | gamma counting | peptide, healthy mice, femur (bone and marrow) | 60 min | – | tissue uptake | 0.38 %ID/g
epoetin alfa | UT7/EPO | microarray, measured: KLF6 (probe 208961_s_at) | – | 5 U/mL, 90 min, with: SCF 10 nM | relative to: vehicle | mRNA level | 7.5 fold
LMPFGSLLDYV | HLA class I histocompatibility antigen, A alpha chain allele A*02:01 | complex stability, off-rate | peptide | 37 °C | – | half-life of peptide-HLA complex | 89.1 h
GSGAGKETYY | human MAGI1-3/6 PDZ construct (MBP fusion) | automated holdup | peptide, purified PDZ protein | concentration not given, unit not given | relative to: biotin control resin, higher = stronger binding | binding intensity | -0.043
ACEQNPIYWARYADWLFTTPLLLLDLALLVDADEGT | – | ex vivo fluorescence imaging | peptide, BALB/c mice, 4T1 tumour-bearing, kidney | intravenous, 5 nmol, 4 h post-injection | higher = more uptake | mean fluorescence intensity | 1100 ± 254 a.u.
GLGQWISGA | Jurkat T cells expressing 1G4 TCR | NFAT-eGFP reporter, fluorescence microscopy | peptide | concentration not given, HLA-A*02:01 NY-ESO system | – | reporter activation | 0.0044%
GSGAGKETSF | human MAGI1-3/6 PDZ construct (MBP fusion) | surface plasmon resonance | peptide | concentration not given | higher = stronger binding | normalised SPR binding response | 0 normalised RU
GLAQWISHV | Jurkat T cells expressing 1G4 TCR | NFAT-eGFP reporter, fluorescence microscopy | peptide | concentration not given, HLA-A*02:01 NY-ESO system | – | reporter activation | 0.00823%
Peginesatide | UT7/EPO | RT-qPCR, measured: DUSP2 | – | concentration not given, 90 min, normalized to HPRT1 | relative to: vehicle | mRNA level | 3.9 fold
GSGAGICTIV | human MAGI1-2/6 PDZ construct (MBP fusion) | automated holdup | peptide, crude extract | concentration not given, uncorrected, unit not given | relative to: biotin control resin, higher = stronger binding | binding intensity | 0.136
hemoglobin alpha | – | co-immunoprecipitation | human RBC membrane | DMTMM crosslinker, unit not given, with: Band 3 peptide 1-56 bait | relative to: negative control | co-IP enrichment | 16.2
SLLEWQCIL | Jurkat T cells expressing 1G4 TCR | NFAT-eGFP reporter, fluorescence microscopy | peptide | concentration not given, HLA-A*02:01 NY-ESO system | – | reporter activation | 0.0125%
methyl-β-cyclodextrin | SLC6A9 (Homo sapiens, UniProt P48067) | transport activity, [3H]glycine uptake | – | 3.5 mg/mL, 1 min, with: glycine 37.5 µM | higher = more transport | glycine uptake rate | 12.2 a.u. and 17.1 a.u. and 14.8 a.u. and 15 a.u.
GLAQWIAGV | Jurkat T cells expressing 1G4 TCR | NFAT-eGFP reporter, fluorescence microscopy | peptide | concentration not given, HLA-A*02:01 NY-ESO system | – | reporter activation | 0.007%
caspofungin | – | – | adult ICU patients, mITT, serum | dose not given, day 14 | – | magnesium | 0.7 mmol/L
ACEEQNPWARYLEWLFPTETLLLEL | – | ex vivo fluorescence imaging | peptide, BALB/c mice, 4T1 tumour-bearing, kidney | intravenous, 5 nmol, 4 h post-injection | higher = more uptake | mean fluorescence intensity | 1050 ± 144 a.u.
CCT3 | – | co-immunoprecipitation | human RBC membrane | DMTMM crosslinker, unit not given, with: Band 3 peptide 1-56 bait | relative to: negative control | co-IP enrichment | 0
